Experimental data collected from several papers.
Each numbered part is a random draw from the data of one study; scales do not carry over between parts.

Series 1
Target: RNA binding protein fox-1 homolog 2, RRM domain, GST-SBP tag (RBFOX2, Homo sapiens, UniProt O43251-10, residues 100-194)
Method: RNA Bind-n-Seq
Molecule type: RNA
Sample: in vitro
Tested at: 365 nM
Notes: natural RNA segment, single round, ends assumed
Relative to: no-protein control
Direction: higher = stronger binding
Constant ends, left off below: GGGAGUUCUACAGUCCGACGAUC … UGGAAUUCUCGGGUGCCAA
Target sequence (chain): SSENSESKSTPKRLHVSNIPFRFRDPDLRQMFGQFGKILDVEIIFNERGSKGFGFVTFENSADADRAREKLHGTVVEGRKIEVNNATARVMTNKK
Sequence	RBNS enrichment (R)
CCAUGUCACAGAAAAGGUGAAACUAUUAGAUGCUGUUUAGAAAGCAUUUAUCUUGCAUUUCUUUAUUCUUUCUAAUUACCUAAAAUUCAAUAAAAGUUUAUUCAUAUAAA	0.791
CCUCAGGGUAUCAAAGGAGCCCUUUGCUGUGAACCUGGCUAGGAAUGCAAGAUGACUCAGAGUAUAGGUCAGGGUCAGCACUGGAUAAGGUCAUGAGGGCAGUCUCCCAG	1.59
AUUGUAAAUACCAUAUGAAAUCCUUUUUGAUUAAAGCUAUUCAAAAUAAAAAAUUUUAAUGAAUUAAUAUGUCAAUAUUUUUUCCUGGAUCCUUACACACUUGUUUGAUU	0.776
UUAGGUAUGCCUACCAAACAUCCAAAGGUAGACGUGGAGACAUUUUAAUACUACAAAACUAGGAAAAUCAGAACUCAUGGCCAUUUCCUGCCCUCCUCCAACUUGUUAAA	0.372
GGUAGGGUGAUGGCAGUGCUCCGGGAACUGGGCCUGCAGCCUUCCUCUUCUGGGACUGCUGUGAGGCAGAGGAAUGAUGGAGAAUCUAGUGUAGCAGCCUCCAGGCAGGA	1.03
AUUUAUUCCCUAAUGUACCUGAACACUAGUACCAUAGAACUGAACCACCAUCUGUAUCAGCGCAUGGGGAGUGUGCAUUCUGAGGUCUAACCCGGGGUGCCAGGAACACA	0.542
GCGUCCACAAGGCCUCCUGAUACCAGCUUGGCUUCCCACAGCAAGCUCUAACUCUGAGAGCCUUUUGAGGAUGGGUGCUAGAGGGCCCGUGCCCCUAAAACAGCAGGCAG	0.337
CGCCCAAAGCGAACAUCACGUCCGAUGAGCUUGAGGACCUUCGGCUGUGCCAUACUGAGGGGUGGUUGUGUUUGCAGGAGGUAGCCACUCUAGAGGCCGCGGCAGAAGGA	0.956
UGACCUCAGGUGAUCCUCCCGCCUCAGCCUUCCAAAGUGCUGGGAUUACAAGCAUGAGCCACCGCACCCGGCCUCACAGUGACAGAUUCUGAGAAACAGCAUGCAAAACA	35.2
AAGGAAAAUUCUCAGUGUGAUAUACAGAUAUAUUUAAUUGUGUCAUAUUAAACCUUCUGAUUUCAUAUUUGAUGGUCUUUAUUUGAGAAAGUGAGAGCAGUUUCGACCCG	0.281
UGUUUCUACUGCUUUAGUUUUUUUUAAAGUUCUCCAGUGUCCCCAAGAGGUAUUAGAAUCUUGCUGUACCCAAGCAAGACGUUAAUUUUUCUUUUAACUGUUUUGGGGAG	0.554
UCCAGAUGCCUGAGCCCCUUCACUCCGACAGCACCAGCGCCUAAUGCAGCCUUUUCAUUCUUGCCAUUAGGAAAUCUGUGGACUUCUAGCCUGUGUUUUAAACCAGCCAU	0.312

Series 2
Target: Histone acetyltransferase KAT6A, winged helix 1, GST fusion (KAT6A, Homo sapiens, UniProt Q92794, residues 1-85)
Method: protein binding microarray
Molecule type: double-stranded DNA, one strand shown
Sample: in vitro
Tested at: not given
Notes: 8-mer, flanks averaged, mean of 2 arrays, mostly near background
Relative to: not given
Direction: higher = stronger binding
Target sequence (chain): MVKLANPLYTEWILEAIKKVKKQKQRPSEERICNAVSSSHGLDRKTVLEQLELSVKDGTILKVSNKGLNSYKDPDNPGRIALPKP
Sequence	E-score
ATACATAG	-0.116
GGAAATGA	-0.0789
GTGGCGAA	-0.00383
AATTTCGT	-0.0543
TAGCCGAA	0.038
AGACGTCG	0.127
ATACGGGC	0.272
AACTGTAC	-0.0651
GTTGCATA	-0.068
GTAGGTAA	-0.151
CTAAAAAA	-0.153
AATGGAAC	-0.166
GCATTAGA	0.000745
AGGTATTA	-0.0868
TCGAATAA	-0.145
AATTGTCT	-0.171
ACCAGCGA	-0.0067
AGCGCCGC	0.446
CAAAGTCG	-0.0512
ACCGGATG	0.0497
CCTGCGCA	0.0548
GATGTATA	-0.15
AAGAACTG	-0.164
AATGTGTC	-0.0927
TCACAACA	-0.0816

Series 3
Target: Sal-like protein 4, full length isoform A (SALL4, Homo sapiens, UniProt Q9UJQ4, residues 1-1053)
Sequence of UniProt Q9UJQ4 (whole entry, looked up): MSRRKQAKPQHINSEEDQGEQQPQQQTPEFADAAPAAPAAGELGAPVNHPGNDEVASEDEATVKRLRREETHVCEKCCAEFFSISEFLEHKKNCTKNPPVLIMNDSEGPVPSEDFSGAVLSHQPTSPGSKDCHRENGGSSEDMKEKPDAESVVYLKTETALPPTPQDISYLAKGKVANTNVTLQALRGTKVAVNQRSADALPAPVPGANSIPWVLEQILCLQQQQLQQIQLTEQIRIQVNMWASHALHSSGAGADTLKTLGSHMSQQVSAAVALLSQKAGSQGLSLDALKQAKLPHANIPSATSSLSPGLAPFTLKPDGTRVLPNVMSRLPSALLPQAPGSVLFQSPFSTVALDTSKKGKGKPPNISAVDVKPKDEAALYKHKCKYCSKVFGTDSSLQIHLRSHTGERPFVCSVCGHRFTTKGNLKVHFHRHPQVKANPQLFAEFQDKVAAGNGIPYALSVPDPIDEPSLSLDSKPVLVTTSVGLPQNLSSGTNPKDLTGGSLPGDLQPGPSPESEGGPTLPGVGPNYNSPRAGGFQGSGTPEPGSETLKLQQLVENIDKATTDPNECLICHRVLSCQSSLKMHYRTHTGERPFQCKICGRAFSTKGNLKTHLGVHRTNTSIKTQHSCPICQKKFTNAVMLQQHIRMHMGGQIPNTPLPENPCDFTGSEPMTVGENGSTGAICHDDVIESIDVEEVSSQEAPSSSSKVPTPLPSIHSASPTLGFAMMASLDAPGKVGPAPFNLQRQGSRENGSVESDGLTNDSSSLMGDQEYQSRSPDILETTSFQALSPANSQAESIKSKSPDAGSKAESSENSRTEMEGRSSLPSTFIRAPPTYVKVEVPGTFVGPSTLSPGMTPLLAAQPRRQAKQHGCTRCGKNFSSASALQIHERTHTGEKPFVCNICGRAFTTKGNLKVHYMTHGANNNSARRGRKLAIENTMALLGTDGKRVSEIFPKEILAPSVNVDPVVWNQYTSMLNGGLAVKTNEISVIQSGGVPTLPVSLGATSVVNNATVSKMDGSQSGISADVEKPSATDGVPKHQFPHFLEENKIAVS
Method: universal PBM
Molecule type: double-stranded DNA, one strand shown
Sample: in vitro
Tested at: 600 nM
Notes: 8-mer, flanks averaged, mean of replicates
Direction: higher = stronger binding
Sequence	E-score
GAAGGTCA	-0.0522
GGATCAAA	0.119
AGCAAAGG	0.0565
ACACGTGG	-0.121
ATCAGAGC	-0.0231
AACGATGG	-0.122
ATGCACCG	-0.154
ATGGCCAG	0.0375
GCACGGAA	-0.148
CGGCAGTA	-0.217
ATCGTCGC	-0.0488
CCGGTCCG	-0.418
GCTGGAAA	-0.0678
AGAATCCG	-0.214
CTTCAGTA	0.114
AAGGAGTG	-0.0826
GAACCATA	0.111
GCCCTACA	-0.137
ATGCCGGA	-0.0773
CTGCAGTA	-0.000825
TATGTTCA	0.24
AGCAACCC	-0.185
GAACTTCC	-0.0909

Series 4
Target: Ras GTPase-activating protein-binding protein 1, full length (G3BP1, Homo sapiens, UniProt Q13283)
Sequence of UniProt Q13283 (whole entry, looked up): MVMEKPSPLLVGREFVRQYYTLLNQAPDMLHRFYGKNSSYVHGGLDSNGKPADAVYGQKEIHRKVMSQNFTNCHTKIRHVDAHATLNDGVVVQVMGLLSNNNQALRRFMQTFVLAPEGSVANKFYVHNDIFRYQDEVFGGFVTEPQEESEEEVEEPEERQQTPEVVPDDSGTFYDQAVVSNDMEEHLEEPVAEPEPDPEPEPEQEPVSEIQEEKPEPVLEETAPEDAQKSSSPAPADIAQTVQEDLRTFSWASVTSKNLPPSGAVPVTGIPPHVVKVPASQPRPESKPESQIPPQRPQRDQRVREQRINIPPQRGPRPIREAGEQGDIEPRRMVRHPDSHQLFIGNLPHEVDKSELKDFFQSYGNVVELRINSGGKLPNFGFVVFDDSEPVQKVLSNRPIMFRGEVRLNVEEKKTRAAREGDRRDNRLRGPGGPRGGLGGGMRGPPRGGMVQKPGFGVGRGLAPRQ
Method: RNA Bind-n-Seq
Molecule type: RNA
Sample: in vitro
Tested at: 200 nM
Notes: whole 134-nt RNA, ends assumed
Together with: 150 mM KCl
Relative to: input library
Direction: higher = stronger binding
Constant ends, left off below: GGGAGUUCUACAGUCCGACGAUC … UGGAAUUCUCGGGUGUCAAGG
Sequence	log2 enrichment
UAACUUUAGAGGAGGAUCUGAUGGAUAUGGCAGUGGACGUGGAUUUGGGGAUGUCUAUAAUGGGUAUGGAGGAGGACCUGGAGGUGGCAA	0.381
AAGUCCUGUGCUACACAUCGUAUGUACCGAAUCGGUUUUUGGUUUUUUUGGUUUGGAAAGUAUUAUGUUACGCCGUUCGGAUCUGCACUU	-1.33
UCAAGUCCUGUGCUACACAUCGUAUGUACCGAAUCGGGAAGGGGAAGGGGAAGGGAAAGUAUUAUGUUACGCCGUUCGGAUCUGCACUUC	1.07
AAGUCCUGUGCUACACAUCGUAUGUACCGAAUCGGGUUUGGGUUUUUUUGGGAGGGAAAGUAUUAUGUUACGCCGUUCGGAUCUGCACUU	0.275
CCUCAAGUCCUGUGCUACACAUCGUAUGUACCGAAUCGGGUGGGGUGGGUGGAAAGUAUUAUGUUACGCCGUUCGGAUCUGCACUUCCAG	1.38
GCAGGAAGUAAAAACAAAUGGAAAUGCUUCAGAUAGUGGCAGGGGUGGGGGUUGCUAAGGAAAGGGUGGGAUGGGAGUGGGUAAAGAGUU	0.776
CGCUAAAGAGGAGCACGGUGGACUGAUGUGAGCUUCUCUUCCUGCCCCUUCCUCCCUGAUGUCCACUCCCUUCACCUUCCUCACGCCCGU	0.945
UUGCGAAAAGGACCAAUUCCAGUGCCGGAACGAGCGCUGCAUCCCCUCUGUGUGGAGAUGCGACGAGGACGAUGACUGCUUAGACCACAG	-0.242
AGUCCUGUGCUACACAUCGUAUGUACCGAAUCGGGGAGGGGUGGGGAAAAAAAGGGGAAAGUAUUAUGUUACGCCGUUCGGAUCUGCACU	0.553
CUGUGCUACACAUCGUAUGUACCGAAUCGGGGAAAAAAAGGGGAAAGGGGAAAAAAAGGGGAAAGUAUUAUGUUACGCCGUUCGGAUCUG	-0.208
UCCUCAAGUCCUGUGCUACACAUCGUAUGUACCGAAUCGGAGGUUUGGUGGAAAGUAUUAUGUUACGCCGUUCGGAUCUGCACUUCCAGC	-0.795
UGGCCCUGGUGGCAUGCGGGGAGGAAGAGGUGGCCUCAUGGAUCGUGGUGGUCCCGAUGGAAUGUUCAGAGGUGGCCGUGGUGGAGACAG	0.0816
CAAGUCCUGUGCUACACAUCGUAUGUACCGAAUCGGGGAAGGGGAAGGGGAAGGGGAAAGUAUUAUGUUACGCCGUUCGGAUCUGCACUU	1.23
ACCAUGCAGGUGGUCAUCUUUGGGAAGUGGGGCAAGGGGGGGAUAGGGAGGGGGGUAACACUUUGGGAACAGGUGGUCCCAGGUCGUUUC	0.842

Series 5
Target: Phosphate system positive regulatory protein PHO4, full length, GST-tagged (PHO4, Saccharomyces cerevisiae, UniProt P07270, residues 1-312)
Method: competition protein-binding microarray
Molecule type: double-stranded DNA, one strand shown
Sample: in vitro
Tested at: 2 µM
Notes: whole 60-bp probe, lowest competitor level
Together with: Cbf1 competitor, 0.05 µM
Direction: higher = stronger binding
Constant ends, left off below: … GTCTTGATTCGCTTGACGCTGCTG
Construct (chain): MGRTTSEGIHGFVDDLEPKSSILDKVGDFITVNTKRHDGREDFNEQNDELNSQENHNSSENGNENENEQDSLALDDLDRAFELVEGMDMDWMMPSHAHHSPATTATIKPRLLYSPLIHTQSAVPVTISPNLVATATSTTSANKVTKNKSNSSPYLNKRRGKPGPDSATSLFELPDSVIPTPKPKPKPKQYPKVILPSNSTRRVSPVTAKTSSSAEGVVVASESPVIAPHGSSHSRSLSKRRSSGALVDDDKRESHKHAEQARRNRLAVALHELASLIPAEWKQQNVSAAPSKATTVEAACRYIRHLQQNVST
Sequence	fluorescence intensity [a.u.]
GGAAGCATTTTCCATCACGTTATTCGGGGACACCCA	6680
CAAGGGATCCTCATTCTCGTGGTCGTAGGTGGGTTG	6910
AAAGCGGTAATTTGTCACACCACTTCACATATCTAT	4610
TTGACCCAACTCGGCCACGTGGGTAGTTTTGCCATC	18100
ACCGGTTTTCTCGTCCACGTGAACGGTGTCAACACC	13100
ACCGAATCTTCGTTCCACGTGGTTACCTGTCATGGT	18100
GTCTTGTCTCATTGCCAGGTGGGTGTCCCCACTTCA	6080
AAAGCGGTAATTTTTCACGTGCACTCACATATCTAT	14500
CTTCTGTAAATTTGTAAAGTGGGTGGACGCGCCCCG	4310
AAAGCGGTAATTTGTGAGGTGGGTGCAGATATCTAT	4220
CCATCTTGTACTCACCACATGCCTATTAGTCACTAG	11500
CAAAAGTATCTTGACAACGTGGTCGAAATTGAGTAA	12600
CGTTTGTAATACCATCACGTGCAAAATCTTCTCTTC	14800
TGCTGTCATTTGAGTCAGGTGTAGAGCAGGTTAGAA	3710
CCAATTTATTGACATCACCTGGAATGCAGGCGGTGG	5040
GGTACAATCCGTTTGAACGTGACGGGGTTTGTTACA	9460
CGTCCTAGTGATTGTCACCCTACTTCCATGAGGAAG	4470
GTCTTGTCTCATTTTCACGTGCTCTTCCCCACTTCA	13000
AATTTTTTTCTTCGGCACGTCATACACCTTGTAATG	6070
CGGGGTTAAGTTTGCGGGGTGGGTGGCTTGCAGCAG	5470
GCACAGAAGCCCCATCACGTGACAAACAAGTGCTTC	12000
TGTAAATAACCGTGGAAGAATTTGTATTATCATCGT	6990
TCCCAGTAGATATCGCACGCAAAACTCAAAAGATGG	6520
CTAGAAAAGAAACACCGCGTGGTGAATCTATGTCCA	11200
CCGGCTTCAATCGTCCCCGTGCCAGATAAACCAAAA	10900
